Experimental data of several laboratories.
A part holds a random share of what one study measured. Several values in a cell are separate wells, animals, samples, runs or records.
Chain of UniProt Q9UKI8 (whole entry, looked up): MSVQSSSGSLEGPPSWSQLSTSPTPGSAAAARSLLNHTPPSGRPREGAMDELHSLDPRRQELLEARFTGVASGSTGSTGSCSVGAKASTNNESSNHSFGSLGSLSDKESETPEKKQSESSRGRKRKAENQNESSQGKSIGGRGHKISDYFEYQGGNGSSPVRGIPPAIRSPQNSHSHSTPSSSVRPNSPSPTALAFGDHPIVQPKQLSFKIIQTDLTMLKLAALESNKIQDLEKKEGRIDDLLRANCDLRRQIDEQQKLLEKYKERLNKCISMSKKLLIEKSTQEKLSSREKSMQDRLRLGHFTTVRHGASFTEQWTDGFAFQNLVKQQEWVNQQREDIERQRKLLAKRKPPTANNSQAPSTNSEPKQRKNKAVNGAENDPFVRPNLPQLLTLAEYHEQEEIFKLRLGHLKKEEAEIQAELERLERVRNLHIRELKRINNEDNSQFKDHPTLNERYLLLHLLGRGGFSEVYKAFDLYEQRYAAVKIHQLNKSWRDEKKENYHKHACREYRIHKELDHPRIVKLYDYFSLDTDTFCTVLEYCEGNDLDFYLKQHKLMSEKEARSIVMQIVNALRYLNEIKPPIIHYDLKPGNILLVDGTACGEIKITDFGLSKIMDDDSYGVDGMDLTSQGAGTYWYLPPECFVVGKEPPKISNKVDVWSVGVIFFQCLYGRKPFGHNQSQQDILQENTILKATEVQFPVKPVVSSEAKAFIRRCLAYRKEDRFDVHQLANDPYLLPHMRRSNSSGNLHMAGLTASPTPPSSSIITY
Chain of UniProt Q15418 (whole entry, looked up): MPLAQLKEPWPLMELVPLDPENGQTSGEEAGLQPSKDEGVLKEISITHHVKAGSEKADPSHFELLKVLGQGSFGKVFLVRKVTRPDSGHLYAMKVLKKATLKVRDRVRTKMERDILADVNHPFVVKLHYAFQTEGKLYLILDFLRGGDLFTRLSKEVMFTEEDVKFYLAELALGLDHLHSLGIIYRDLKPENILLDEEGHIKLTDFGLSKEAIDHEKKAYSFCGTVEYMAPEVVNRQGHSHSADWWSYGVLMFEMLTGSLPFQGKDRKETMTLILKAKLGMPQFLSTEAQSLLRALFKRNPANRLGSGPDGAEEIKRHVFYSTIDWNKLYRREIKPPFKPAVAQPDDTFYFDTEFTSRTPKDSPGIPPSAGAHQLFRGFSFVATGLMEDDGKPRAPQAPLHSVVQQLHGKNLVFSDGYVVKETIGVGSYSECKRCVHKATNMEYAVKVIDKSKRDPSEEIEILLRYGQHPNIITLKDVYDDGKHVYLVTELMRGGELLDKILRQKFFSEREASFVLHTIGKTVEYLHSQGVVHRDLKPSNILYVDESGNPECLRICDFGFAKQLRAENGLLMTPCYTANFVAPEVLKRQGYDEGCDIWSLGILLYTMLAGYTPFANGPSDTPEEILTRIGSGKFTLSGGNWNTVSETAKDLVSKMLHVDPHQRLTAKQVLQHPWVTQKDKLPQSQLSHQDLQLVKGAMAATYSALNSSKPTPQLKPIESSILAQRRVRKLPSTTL
Chain of UniProt Q9P1W9 (whole entry, looked up): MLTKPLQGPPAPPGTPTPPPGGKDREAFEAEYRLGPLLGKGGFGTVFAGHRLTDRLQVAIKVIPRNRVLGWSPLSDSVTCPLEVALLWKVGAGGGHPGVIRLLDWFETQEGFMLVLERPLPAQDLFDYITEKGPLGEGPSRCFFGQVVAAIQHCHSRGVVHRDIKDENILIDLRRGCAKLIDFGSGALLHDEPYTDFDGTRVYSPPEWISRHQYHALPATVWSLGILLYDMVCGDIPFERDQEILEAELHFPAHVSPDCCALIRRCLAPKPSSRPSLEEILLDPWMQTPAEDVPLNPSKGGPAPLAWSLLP
Chain of UniProt Q13163 (whole entry, looked up): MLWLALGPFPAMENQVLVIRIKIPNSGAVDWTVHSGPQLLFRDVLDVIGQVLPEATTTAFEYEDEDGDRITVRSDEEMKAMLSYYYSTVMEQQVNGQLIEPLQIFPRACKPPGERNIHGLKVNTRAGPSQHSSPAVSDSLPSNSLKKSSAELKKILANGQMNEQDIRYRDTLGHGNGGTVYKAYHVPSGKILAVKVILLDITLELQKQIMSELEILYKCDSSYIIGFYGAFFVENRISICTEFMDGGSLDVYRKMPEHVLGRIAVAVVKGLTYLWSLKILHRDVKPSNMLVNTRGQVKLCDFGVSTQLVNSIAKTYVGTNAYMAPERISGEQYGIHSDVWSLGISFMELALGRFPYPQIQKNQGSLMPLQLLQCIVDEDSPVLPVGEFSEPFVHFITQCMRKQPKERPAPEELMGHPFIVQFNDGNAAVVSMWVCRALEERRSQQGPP
Chain of UniProt Q9Y2H9 (whole entry, looked up): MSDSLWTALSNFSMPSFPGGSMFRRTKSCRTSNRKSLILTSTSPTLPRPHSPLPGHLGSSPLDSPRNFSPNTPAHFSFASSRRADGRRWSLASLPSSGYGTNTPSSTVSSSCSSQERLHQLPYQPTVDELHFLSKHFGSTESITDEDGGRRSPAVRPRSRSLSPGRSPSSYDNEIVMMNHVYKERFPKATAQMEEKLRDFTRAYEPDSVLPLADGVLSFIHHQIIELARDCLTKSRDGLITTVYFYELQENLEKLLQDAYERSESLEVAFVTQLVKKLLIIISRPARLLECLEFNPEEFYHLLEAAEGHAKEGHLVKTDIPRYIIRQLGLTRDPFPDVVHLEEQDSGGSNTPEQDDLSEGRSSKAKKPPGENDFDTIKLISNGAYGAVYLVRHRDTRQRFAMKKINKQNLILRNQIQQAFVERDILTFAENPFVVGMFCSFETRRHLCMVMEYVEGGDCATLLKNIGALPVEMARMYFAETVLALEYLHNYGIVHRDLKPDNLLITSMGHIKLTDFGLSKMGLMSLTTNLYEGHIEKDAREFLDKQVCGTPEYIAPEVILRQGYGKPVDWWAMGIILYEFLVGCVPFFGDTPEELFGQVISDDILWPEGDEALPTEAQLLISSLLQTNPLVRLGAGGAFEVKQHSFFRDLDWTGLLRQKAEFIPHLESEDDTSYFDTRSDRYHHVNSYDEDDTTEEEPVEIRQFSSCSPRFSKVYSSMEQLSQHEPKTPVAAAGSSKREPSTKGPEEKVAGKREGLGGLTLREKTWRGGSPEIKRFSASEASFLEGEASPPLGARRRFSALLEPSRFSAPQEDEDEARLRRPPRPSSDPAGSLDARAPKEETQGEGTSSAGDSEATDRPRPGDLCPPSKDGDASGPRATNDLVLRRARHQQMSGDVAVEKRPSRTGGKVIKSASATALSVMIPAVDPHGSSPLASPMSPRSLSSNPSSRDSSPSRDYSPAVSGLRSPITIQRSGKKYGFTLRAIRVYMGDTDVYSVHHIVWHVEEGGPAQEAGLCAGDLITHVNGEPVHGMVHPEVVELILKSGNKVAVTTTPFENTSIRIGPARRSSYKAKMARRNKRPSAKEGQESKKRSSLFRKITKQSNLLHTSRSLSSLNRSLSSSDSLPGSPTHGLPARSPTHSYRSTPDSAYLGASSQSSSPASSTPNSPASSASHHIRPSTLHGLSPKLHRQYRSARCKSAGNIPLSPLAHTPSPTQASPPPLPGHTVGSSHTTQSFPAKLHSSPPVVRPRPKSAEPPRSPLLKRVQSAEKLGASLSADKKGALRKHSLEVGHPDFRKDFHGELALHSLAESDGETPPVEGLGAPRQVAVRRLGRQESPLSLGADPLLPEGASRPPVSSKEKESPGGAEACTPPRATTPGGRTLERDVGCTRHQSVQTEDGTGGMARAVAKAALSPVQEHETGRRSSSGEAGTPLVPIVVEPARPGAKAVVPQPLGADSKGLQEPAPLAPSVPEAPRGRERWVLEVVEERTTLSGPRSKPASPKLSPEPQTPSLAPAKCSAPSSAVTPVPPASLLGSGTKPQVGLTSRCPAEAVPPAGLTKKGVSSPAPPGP
Chain of UniProt Q9P289 (whole entry, looked up): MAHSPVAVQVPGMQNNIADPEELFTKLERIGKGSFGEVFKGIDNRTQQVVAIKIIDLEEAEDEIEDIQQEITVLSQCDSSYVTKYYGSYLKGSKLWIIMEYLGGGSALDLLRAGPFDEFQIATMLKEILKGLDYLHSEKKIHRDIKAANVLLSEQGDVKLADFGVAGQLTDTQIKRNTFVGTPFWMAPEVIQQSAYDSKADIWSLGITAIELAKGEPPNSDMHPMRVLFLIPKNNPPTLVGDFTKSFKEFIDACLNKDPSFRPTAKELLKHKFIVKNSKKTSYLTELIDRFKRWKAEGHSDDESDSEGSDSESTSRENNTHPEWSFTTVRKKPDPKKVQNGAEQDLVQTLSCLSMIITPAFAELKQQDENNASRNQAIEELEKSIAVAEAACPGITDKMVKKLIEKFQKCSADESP
Chain of UniProt Q9Y2U5 (whole entry, looked up): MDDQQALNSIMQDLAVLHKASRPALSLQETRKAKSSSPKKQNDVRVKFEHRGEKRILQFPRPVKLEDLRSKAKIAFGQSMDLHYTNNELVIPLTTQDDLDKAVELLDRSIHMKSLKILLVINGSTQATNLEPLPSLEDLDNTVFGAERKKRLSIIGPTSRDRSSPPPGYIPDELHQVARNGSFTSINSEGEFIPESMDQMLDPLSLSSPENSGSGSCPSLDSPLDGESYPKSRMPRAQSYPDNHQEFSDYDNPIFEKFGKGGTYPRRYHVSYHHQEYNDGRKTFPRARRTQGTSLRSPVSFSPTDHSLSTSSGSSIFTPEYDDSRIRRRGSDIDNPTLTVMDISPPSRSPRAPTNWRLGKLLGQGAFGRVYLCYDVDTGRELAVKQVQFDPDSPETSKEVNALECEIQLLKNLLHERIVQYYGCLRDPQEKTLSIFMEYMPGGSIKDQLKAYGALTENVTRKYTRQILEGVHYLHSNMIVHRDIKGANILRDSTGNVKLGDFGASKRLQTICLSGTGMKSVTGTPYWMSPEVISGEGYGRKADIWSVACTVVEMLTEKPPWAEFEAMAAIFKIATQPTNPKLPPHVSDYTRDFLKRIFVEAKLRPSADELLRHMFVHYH

Series 1 — host: human; matrix: microsomes or S9; concentration: 2 µM; time: 0.5 h
The remaining compound of `COC(=O)C(C)NC(=O)C12CC3(C)CC(C)(CC(C)(C3)C1)C2` (centres unmarked) is reported as 0.0194%.
`CC(=O)N1CCOc2cc(S(=O)(=O)N3CSC[C@@H]3C(=O)NCc3csc(C)n3)c(C)cc21` gave a remaining compound of 2.29%.
The remaining compound of `COc1cccc(Nc2nnc(SCC(=O)OC(C)(C)C)s2)c1` is reported as 10.2%.

Series 2 — cell line: HEK293; technique: CellTiter-Glo; baseline: vehicle
SMILES: CN1CCC[C@H]1COc1nc2c(c(N3CCN(S(C)(=O)=O)[C@@H](CC#N)C3)n1)CCN(c1cccc3cccc(Cl)c13)C2
It gave 52.2% and 40.4% and 48.8% for viability (2.5 µM).
10 µM — viability: 19.1% and 17.7% and 21%.
For 1.25 µM: viability read 79.6% and 69.3% and 68.7%.
For 625 nM: viability read 108% and 109% and 95.9%.

Series 3 — effect on: cell-free assay; technique: competition with immobilised ligand; concentration: 1 µM
Structure (SMILES): Cc1nc(Cc2cccc(C(F)(F)F)c2)sc1-c1ccc(C(N)=O)nc1
It gave 100% for remaining binding (MAST1 (Homo sapiens, UniProt Q9Y2H9)).
The remaining binding was 92% (AKT3 (Homo sapiens, UniProt Q9Y243)).
It gave 85% for remaining binding (MAP2K5 (Homo sapiens, UniProt Q13163)).
For MAP3K10 (Homo sapiens, UniProt Q02779): remaining binding read 71%.
STK26 (Homo sapiens, UniProt Q9P289) — remaining binding: 83%.
PIM2 (Homo sapiens, UniProt Q9P1W9) — remaining binding: 64%.
The remaining binding was 79% (Ribosomal protein S6 kinase alpha-1, N-terminal kinase domain (RPS6KA1, Homo sapiens, UniProt Q15418)).
MAPK7 (Homo sapiens, UniProt Q13164) — remaining binding: 88%.
MINK1 (Homo sapiens, UniProt Q8N4C8) — remaining binding: 92%.
The remaining binding was 100% (Tyrosine-protein kinase JAK2, JH1 (JAK2, Homo sapiens, UniProt O60674)).
For MAP3K2 (Homo sapiens, UniProt Q9Y2U5): remaining binding read 100%.
The remaining binding was 100% (ITK (Homo sapiens, UniProt Q08881)).
The remaining binding was 100% (TLK1 (Homo sapiens, UniProt Q9UKI8)).
For IRAK4 (Homo sapiens, UniProt Q9NWZ3): remaining binding read 100%.

Series 4 — cell line: HaCaT; concentration: 100 µM; time: 36 h
For `COc1cc(C)c(/C=C/C(C)=C/C=C/C(C)=C/C(=O)O)c(C)c1C`, the viability was 91.3%.
With `O=c1ccc2ccc(O)c(O)c2o1` the viability was 108%.
`CN[C@@H]1[C@@H](O)[C@@H](O[C@@H]2[C@@H](O)[C@H](O[C@H]3OC(CN)=CC[C@H]3N)[C@@H](N)C[C@H]2N)OC[C@]1(C)O` has a viability of 89%.

Series 5 — host: human patients; matrix: plasma
SMILES: COc1ccc(-c2c(Nc3ccccn3)[nH]c3c(C4=CCCCC4)c(-c4ccccc4)nn3c2=O)cc1
The median concentration was 14.5 ng/mL (measured: S-adenosylmethionine; 200 mg once daily, 2 h).
The median concentration was 106000 ng/mL (measured: methionine; 200 mg once daily, 2 h).
The median concentration was 111000 ng/mL (measured: methionine; 200 mg once daily, 4 h).
For measured: methionine; 200 mg once daily, 0 h: median concentration read 118000 ng/mL.
The median concentration was 21.4 ng/mL (measured: S-adenosylmethionine; 400 mg once daily, 0 h).
measured: methionine; 150 mg once daily, 8 h — median concentration: 95900 ng/mL.

Other studies, line by line
`NC(=O)N1c2ccccc2C=Cc2ccccc21` has a fraction unbound of 0.346 (human; 6 h).
The heart rate of `COc1cc(C(=O)OCCCN2CCCN(CCCOC(=O)c3cc(OC)c(OC)c(OC)c3)CC2)cc(OC)c1OC` is reported as 600 beats/min and 580 beats/min and 568 beats/min (electrocardiography; mice; intraperitoneal, 10 mg/kg, 30 min).
